Published values gathered from unrelated publications.
Each line is one published result; not all experiments were run side by side. Numbers after ± are the reported error.

SMILES	assay	test system	conditions	tissue uptake
CCCC[C@H](NC(=O)CNC(=O)CNC(=O)CN1CCN(CC(=O)O)CCN(CC(=O)O)CCN(CC(=O)O)CC1)C(=O)N[C@H]1CC(=O)NCCCC[C@@H](C(N)=O)NC(=O)[C@H](Cc2c[nH]c3ccccc23)NC(=O)[C@H](CCCNC(=N)N)NC(=O)[C@@H](Cc2ccccc2)NC(=O)[C@H](Cc2c[nH]cn2)NC1=O [lead-203 labelled]		C57 mouse, muscle	intravenous, 0.056 MBq, 24 h	0.06 ± 0.05 %ID/g
CCCC[C@H](NC(=O)CNC(=O)CNC(=O)CN1CCN(CC(=O)O)CCN(CC(=O)O)CC1)C(=O)N[C@H]1CC(=O)NCCCC[C@@H](C(N)=O)NC(=O)[C@H](Cc2c[nH]c3ccccc23)NC(=O)[C@H](CCCNC(=N)N)NC(=O)[C@@H](Cc2ccccc2)NC(=O)[C@H](Cc2c[nH]cn2)NC1=O [copper-64 labelled]		female C57 mouse, B16/F1 melanoma, heart	intravenous, 0.037 MBq, 24 h	0.13 ± 0.09 %ID/g
CC(C)[C@H](NC(=O)[C@@H]1CCCN1C(=O)[C@H](CCCNC(=N)N)NC(=O)[C@H](CS)NC(=O)[C@H](Cc1c[nH]c2ccccc12)NC(=O)[C@H](CCCNC(=N)N)NC(=O)[C@@H](Cc1ccccc1)NC(=O)[C@H](Cc1c[nH]cn1)NC(=O)[C@H](CCC(=O)O)NC(=O)[C@H](CS)NC(=O)[C@H](CS)NC(=O)CNC(=O)[C@@H]1CC(=O)N[C@@H](CCCNC(=N)N)C(=O)NCC(=O)N[C@@H](CC(=O)O)C(=O)N[C@H](Cc2ccc(O)cc2)C(=O)N1)C(N)=O [technetium-99m labelled]		C57 mouse, female, B16/F1 melanoma, bone	intravenous, 0.037 MBq, 24 h	0.47 ± 0.12 %ID/g
C[C@H](CN(C)Cc1ccccc1)NC(=O)c1ccc(-c2noc(C(F)(F)[18F])n2)cc1	PET imaging	female Sprague-Dawley rats, brain	intravenous, 1 min	2.96 ± 0.95 SUV
O=C(O)C1CN(Cc2ccc(-c3noc(-c4ccc(OCC[18F])c(C(F)(F)F)c4)n3)cc2)C1		male Sprague-Dawley rat, pancreas	intravenous, 120 min	0.265 ± 0.128 %ID/g
O=C([O-])CN1CCN(CC(=O)[O-])CCN(CC(=O)NCCc2ccc3c(c2)C2C=CCC2C(c2cc4c(cc2Br)OCO4)N3)CCN(CC(=O)[O-])CC1.[111In+3] (stereo not drawn)		mouse, Hec50 endometrial tumour, small intestine	2 h post injection	6.12 ± 3.96 %ID/g
CCCC[C@H](NC(=O)CNC(=O)CNC(=O)CN1CCN(CC(=O)O)CCN(CC(=O)O)CCN(CC(=O)O)CC1)C(=O)N[C@H]1CC(=O)NCCCC[C@@H](C(N)=O)NC(=O)[C@H](Cc2c[nH]c3ccccc23)NC(=O)[C@H](CCCNC(=N)N)NC(=O)[C@@H](Cc2ccccc2)NC(=O)[C@H](Cc2c[nH]cn2)NC1=O [gallium-67 labelled]		female C57 mice, B16/F1 melanoma, liver	intravenous, 0.037 MBq, 0.5 h	1.82 ± 0.13 %ID/g
OCc1cn(Cc2ccc(-c3noc(-c4ccc(OCC[18F])c(C(F)(F)F)c4)n3)cc2)nn1		female Lewis rat, kidney	intravenous, 5 min	3.43 ± 0.31 %ID/g
CC(C)[C@H](NC(=O)[C@@H]1CCCN1C(=O)[C@H](CCCNC(=N)N)NC(=O)[C@H](CS)NC(=O)[C@H](Cc1c[nH]c2ccccc12)NC(=O)[C@H](CCCNC(=N)N)NC(=O)[C@@H](Cc1ccccc1)NC(=O)[C@H](Cc1c[nH]cn1)NC(=O)[C@H](CCC(=O)O)NC(=O)[C@H](CS)NC(=O)[C@H](CS)NC(=O)[C@@H]1CC(=O)N[C@@H](CCCNC(=N)N)C(=O)NCC(=O)N[C@@H](CC(=O)O)C(=O)N[C@H](Cc2ccc(O)cc2)C(=O)N1)C(N)=O [technetium-99m labelled]		C57 mouse, female, B16/F1 melanoma, spleen	intravenous, 0.037 MBq, 2 h	1.06 ± 0.39 %ID/g
O=C([O-])CN1CCN(CC(=O)[O-])CCN(CC(=O)[O-])CCN(CC(=O)[O-])CC1.[64Cu+2]		healthy athymic nude mice, blood	intravenous, 4 h	0.22 %ID/g
CCCC[C@@H]1NC(=O)[C@@H](NC(=O)[C@H](CCC(=O)O)NC(=O)CNC(=O)CN2CCN(CC(=O)O)CCN(CC(=O)O)CCN(CC(=O)O)CC2)CCCCNC(=O)C[C@@H](C(N)=O)NC(=O)[C@H](C(C)C)NC(=O)[C@@H]2CCCN2C(=O)[C@H](CCCNC(=N)N)NC(=O)CNC(=O)[C@H](Cc2c[nH]c3ccccc23)NC(=O)[C@H](CCCNC(=N)N)NC(=O)[C@@H](Cc2ccccc2)NC(=O)[C@H](Cc2c[nH]cn2)NC(=O)[C@H](CCC(=O)O)NC1=O [gallium-67 labelled]		C57 mice, B16/F10 lung metastases, pancreas	intravenous, 0.037 MBq/mouse, 4 h	0.18 ± 0.09 %ID/g
O=C([O-])c1cccc(CN(CCN(Cc2cn(Cc3ccccc3)nn2)Cc2cccc(C(=O)[O-])n2)Cc2cn(Cc3ccccc3)nn2)n1.[64Cu+2]		athymic nude mice, femur	intravenous, 0.25 h, with: 64Cu	1.27 %ID/g
NC12CNCCNCC(NCc3ccc(CNC(=O)CCCC(=O)NCc4ccc(-c5nncnn5)cc4)cc3)(CNCCNC1)CNCCNC2.[64Cu+2]		athymic nude mice SW1222 xenograft, spleen	4 h post injection, 24 h accumulation interval, with: huA33-TCO pretargeting	0.81 ± 0.2 %ID/g
CCCC[C@H](NC(=O)CNC(=O)CNC(=O)CN1CCN(CC(=O)O)CCN(CC(=O)O)CCN(CC(=O)O)CC1)C(=O)N[C@H]1CC(=O)NCCCC[C@@H](C(N)=O)NC(=O)[C@H](Cc2c[nH]c3ccccc23)NC(=O)[C@H](CCCNC(=N)N)NC(=O)[C@@H](Cc2ccccc2)NC(=O)[C@H](Cc2c[nH]cn2)NC1=O [copper-64 labelled]		female C57 mouse, B16/F1 melanoma, muscle	intravenous, 0.037 MBq, 2 h	0.42 ± 0.24 %ID/g
CN(C)c1ccc(-c2nc3ccc(OCCCCCN4CCN5CCN(CC4)CC(=O)[O][Al]([18F])[O]C(=O)C5)cc3s2)cc1		ICR mouse, muscle	intravenous, 30 min	0.8 ± 0.09 %ID/g
